Assay results pooled from the literature.
Lines come from different studies, so protocols differ.
CA2: Carbonic anhydrase 2 (CA2, Homo sapiens, UniProt P00918)
CA2 A65S/F130A/I91T/L203N/N67K/V134S: Carbonic anhydrase 2 (CA2, Homo sapiens, UniProt P00918, A65S/F130A/I91T/L203N/N67K/V134S)

SMILES	target	test	setting	quantity	value
COc1c(C)occc1=S	CA2	esterase activity, inhibitor	10 min preincubation, pH 8.0, added: p-nitrophenyl acetate	Ki	> 50000 µM
NS(=O)(=O)c1c(F)c(F)cc(F)c1NC1CCCCCCC1	CA2 A65S/F130A/I91T/L203N/N67K/V134S	–	pH 7	Kd	4 µM
COc1cccc(/C=N/NC(=O)CSc2nc3ccccc3c(=O)n2CCc2ccc(S(N)(=O)=O)cc2)c1	CA2	enzyme activity, inhibitor, stopped-flow	–	Ki	0.0647 µM
NS(=O)(=O)c1ccc(NC(=O)NN[C@@H]2OC[C@@H](O)[C@H](O)[C@H]2O)cc1	CA2	enzyme activity, inhibitor	–	IC50	0.052 µM
NS(=O)(=O)c1c(F)c(F)cc(F)c1N[C@H]1CCCc2ccccc21	CA2 A65S/F130A/I91T/L203N/N67K/V134S	–	pH 7	Kd	12.5 µM
COc1ccc(NC(=O)CN2C(=O)/C(=N\Nc3ccc(S(N)(=O)=O)cc3)c3ccccc32)cc1	CA2	–	–	Ki	0.18 µM
C[C@@H]1O[C@@H](NNC(=O)Nc2ccc(S(N)(=O)=O)cc2)[C@H](O)[C@H](O)[C@H]1O	CA2	enzyme activity, inhibitor	–	IC50	0.058 µM
COc1ccc(O)c(C2=NN(c3ccc(S(N)(=O)=O)cc3)C(c3ccc(Br)cc3)C2)c1 (centres unmarked)	CA2	enzyme activity, inhibitor, absorbance	–	IC50	1.31 µM
NS(=O)(=O)c1c(F)c(F)c(S(=O)(=O)CCO)c(NC2CCCCCCCCCCC2)c1F	CA2 A65S/F130A/I91T/L203N/N67K/V134S	–	pH 7	Kd	0.00125 µM
Cc1ccc(S(=O)(=O)Nc2cccc(C)c2C)cc1	CA2	enzyme activity, inhibitor	–	IC50	1.91 µM
NS(=O)(=O)c1ccc(CCn2c(SCC(=O)N/N=C/c3ccccc3O)nc3ccccc3c2=O)cc1	CA2	enzyme activity, inhibitor, stopped-flow	–	Ki	0.0275 µM
NS(=O)(=O)c1c(F)c(F)c(NCCc2ccc(O)cc2)c(F)c1NC1CCCCCCC1	CA2 A65S/F130A/I91T/L203N/N67K/V134S	–	–	Kd	12.5 µM
COc1cccc(/C(C)=N/NC(=O)CSc2nc3ccccc3c(=O)n2CCc2ccc(S(N)(=O)=O)cc2)c1	CA2	enzyme activity, inhibitor, stopped-flow	–	Ki	0.0558 µM
Cc1cc(C)cc(C(=O)Nc2cccc(S(N)(=O)=O)c2)c1	CA2	enzyme activity, inhibitor, absorbance	–	IC50	0.93 µM
CC(=O)Nc1ccc(S(N)(=O)=O)cc1	CA2	enzyme activity, inhibitor	–	Ki	0.0677 µM
NS(=O)(=O)c1ccc(Nc2nc3nccc(-c4ccc5ccccc5c4)n3n2)cc1	CA2	enzyme activity, inhibitor, stopped-flow	–	Ki	0.326 µM
NS(=O)(=O)c1c(F)c(F)c(SCCc2ccc(C(=O)O)cc2)c(F)c1F	CA2	–	–	Kd	0.002 µM
COCCOc1cc2ncnc(Nc3cccc(-c4cn(CCc5ccc(S(N)(=O)=O)cc5)nn4)c3)c2cc1OCCOC	CA2	enzyme activity, inhibitor, stopped-flow	–	Ki	0.0184 µM
C#CCCC1(CCOC(=O)NCCc2ccc(S(N)(=O)=O)cc2)N=N1	CA2	enzyme activity, inhibitor, absorbance	–	IC50	2.35 µM
CNc1c(F)c(S(N)(=O)=O)c(F)c(F)c1S(=O)(=O)CCc1ccccc1	CA2 A65S/F130A/I91T/L203N/N67K/V134S	–	pH 7	Kd	0.29 µM
Cc1ccc(S(=O)(=O)NC(C)c2ccccc2)cc1 (centres unmarked)	CA2	enzyme activity, inhibitor	–	IC50	1.29 µM
COC(=O)CCCNC(=O)c1cc(S(N)(=O)=O)c(Cl)cc1NC1CCCCC1	CA2 A65S/F130A/I91T/L203N/N67K/V134S	–	pH 7	Kd	0.017 µM
NS(=O)(=O)c1ccc(NC(=O)NN[C@@H]2O[C@H](CO)[C@H](O)[C@H](O)[C@H]2O)cc1	CA2	enzyme activity, inhibitor	–	IC50	0.019 µM

A few entries again:
SMILES	target	test	setting	quantity	value
Cc1ccc(S(=O)(=O)Nc2cccc(C)c2C)cc1	CA2	enzyme activity, inhibitor	–	IC50	1.91 µM
COc1ccc(O)c(C2=NN(c3ccc(S(N)(=O)=O)cc3)C(c3ccc(Br)cc3)C2)c1 (centres unmarked)	CA2	enzyme activity, inhibitor, absorbance	–	IC50	1.31 µM
NS(=O)(=O)c1c(F)c(F)cc(F)c1N[C@H]1CCCc2ccccc21	CA2 A65S/F130A/I91T/L203N/N67K/V134S	–	pH 7	Kd	12.5 µM
